Results from different studies.
Each line is one published result; not all experiments were run side by side.

C[C@@H]1OC(=O)NN=C1c1ccc(-c2ccc(F)cc2)c(C(F)(F)F)c1
patients with abdominal distension (patients, phase I trial; oral, dose not given, all arms, worst grade 1): 20%

COc1c(OCCCN2CCOCC2)ccc2c1N=C(NC(=O)c1cnc(N)nc1)N1CCN=C21
patients with adverse event (item: Hyponatremia; patients with advanced malignancies; intravenous, dose not given, any grade, all cohorts, added: gemcitabine): 26%

CC(=O)c1c(C)c2cnc(Nc3ccc(C4CCN(CCS(C)(=O)=O)CC4)cn3)nc2n(C2CCCC2)c1=O
patients with platelet count decreased (HR+/HER2- advanced breast cancer patients; oral, 100 mg bid, all grades, monotherapy arm): 46.7%

O=C1Nc2cc3[nH]nc(-c4ccncc4)c3cc2CN1Cc1ccccc1
patients with grade ≥3 TEAE (item: Rash; patients with advanced solid tumours; intravenous, dose not given, schedules 1 and 2): 6%

N[C@@H]1c2ccccc2OC12CCN(c1cnc3c(N4CCCc5ncccc54)n[nH]c3n1)CC2
patients with serious TEAE (advanced solid tumour patients; oral, 40 mg once daily): 75%

Nc1nc2cc(-c3ccc4ncc(C(=O)N5CCOCC5)n4c3)ccc2o1
patients with adverse events (item: Hypokalemia, any cause, grade ≥3; patients with advanced solid tumours; dose not given): 0%

CCN(CCO)CCCC(C)Nc1ccnc2cc(Cl)ccc12 (stereo not drawn)
patients with adverse event (item: Nausea grade 2; newly diagnosed glioblastoma patients; oral, 400 mg/dose, with radiotherapy and temozolomide): 33%

C=CCNc1c(O)cc2c(O)c1C[C@@H](C)C[C@H](OC)[C@H](O)[C@@H](C)/C=C(\C)[C@H](OC(N)=O)[C@@H](OC)/C=C\C=C(/C)C(=O)N2
patients with myalgia TEAE (unresectable or metastatic STS, GIST, other; intravenous, 400 mg/m^2): 34%

CN1CC[C@@H](c2c(O)cc(O)c3c(=O)cc(-c4ccc(C(F)(F)F)cc4Cl)oc23)[C@@H]1CO
patients with adverse event (item: Epistaxis; relapsed B-cell malignancies; oral, 100 mg, grade 3-4, intermittent dosing): 0%
